# Measurements gathered from unrelated publications.
# Every numbered part comes from another study and shows a few of its results, in no order.

# Block 1
# Target: TAR DNA-binding protein 43, full length, His tag (TARDBP, Homo sapiens, UniProt Q13148, residues 1-414)
# Method: RNA Bind-n-Seq
# Form: RNA
# Sample: in vitro
# Concentration: 20 nM
# Notes: 6-mer, flanks averaged, single round
# With: 150 mM LiCl
# Relative to: input library
# Reading: higher = stronger binding
Strand,6-mer enrichment (R)
CGUCAA,0.863
UGUUUA,1.28
GCCCAA,0.953
AGGCCG,0.957
ACUCCC,1.12
GGGUAA,1.05
CUAGAU,0.819
CCUCUA,0.924
CGCCAG,0.895
AUGGCC,0.976
GUUUUC,1.12
AAUUUU,1.22
GUCGCA,0.927

# Block 2
# Target: Protein max, full length (MAX, Homo sapiens, UniProt P61244-2, residues 1-151)
# Method: protein-binding microarray
# Form: double-stranded DNA, one strand shown
# Sample: in vitro
# Concentration: not given
# Notes: k-mer, scored over probes, only values ≥0.25
# Reading: higher = stronger binding
Strand,E-score
ACATGCGA,0.394
CGCGGACC,0.265
CCATGTGA,0.481
CGTGTGCA,0.419
ACACGCAT,0.389
ATCGCATG,0.402
GCACCTGA,0.269
ACGCGACG,0.304

# Block 3
# Target: Interferon regulatory factor 5, full length, phosphomimetic (IRF5, Homo sapiens, UniProt Q13568-2, residues 1-514, S451D/S453D/S456D/S462D)
# Method: protein-binding microarray
# Form: double-stranded DNA, one strand shown
# Sample: in vitro
# Concentration: 940 nM top
# Notes: 60-bp whole probe
# With: salmon DNA 0.4 mg/ml
# Relative to: random background probes
# Reading: higher = stronger binding
# Shared flanks, not repeated: GCCTAGCAC … GTCTTGATTCGCTTGACGCTGCTG
Strand,fitted relative affinity [z-score]
GGCTTTTTAATGAATGAAGAGGTGCTA,-0.347
TCATTTCTCAAATGTTTTACTGTGCTA,0.407
TTAGAATTGGGGACTGGATTAGTGCTA,-0.0143
CCACTCTTCCTTTACTTTCTGTGCTAG,2.6
GGCTTCCTCTTTCTCTGCTAGTGCTAG,0.976
TTAGGTATCGGCCTCGGTTAGTGCTAG,5.52
CTGCCTTTCAATCCTAGGCCGTGCTAG,0.49
GACGGATTGCTTTTCCTGACGTGCTAG,-0.437
GACGAACTCAGTATCGAGACGTGCTAG,1.8

# Single results of other studies
Molecule,target,assay,test system,conditions,how to read,endpoint,result
"PhoQ, residues 284 288 289 292 302 303 GNNTDL","PhoP, residues 12 14 15 18 19 IQFRS (Escherichia coli, UniProt P23836)","Sort-seq, item: YFP reporter",E. coli,"PhoQ-PhoP variant library, with: 10 µM Mg2+","relative to: high Mg2+ state, higher = stronger signaling",fold induction,6.63

# A few entries again (block 2):
Strand,E-score
CGTGTGCA,0.419
GCACCTGA,0.269
ACATGCGA,0.394
